Results gathered from unrelated publications.
A part holds a random share of what one study measured.
Sequence of UniProt Q06187 (whole entry, looked up): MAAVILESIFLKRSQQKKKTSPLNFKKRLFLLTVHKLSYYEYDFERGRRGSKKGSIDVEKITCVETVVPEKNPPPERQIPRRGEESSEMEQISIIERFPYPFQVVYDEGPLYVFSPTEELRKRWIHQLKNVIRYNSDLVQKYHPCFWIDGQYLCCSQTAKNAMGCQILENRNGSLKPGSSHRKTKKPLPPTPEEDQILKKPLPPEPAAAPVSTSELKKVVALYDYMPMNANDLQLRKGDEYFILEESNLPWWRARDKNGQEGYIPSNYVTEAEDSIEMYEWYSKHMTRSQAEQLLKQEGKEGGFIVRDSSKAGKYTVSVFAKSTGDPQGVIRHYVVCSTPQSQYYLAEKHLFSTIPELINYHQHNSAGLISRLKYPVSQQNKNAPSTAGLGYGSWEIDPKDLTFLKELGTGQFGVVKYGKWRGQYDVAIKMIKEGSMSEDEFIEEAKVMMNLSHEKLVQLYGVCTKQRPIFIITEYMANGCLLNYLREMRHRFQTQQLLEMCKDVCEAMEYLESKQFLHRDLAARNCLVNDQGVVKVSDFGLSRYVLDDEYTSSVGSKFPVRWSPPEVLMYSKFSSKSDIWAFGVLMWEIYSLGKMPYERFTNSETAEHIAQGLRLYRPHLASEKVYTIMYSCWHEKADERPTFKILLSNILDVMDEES
Sequence of UniProt Q00535 (whole entry, looked up): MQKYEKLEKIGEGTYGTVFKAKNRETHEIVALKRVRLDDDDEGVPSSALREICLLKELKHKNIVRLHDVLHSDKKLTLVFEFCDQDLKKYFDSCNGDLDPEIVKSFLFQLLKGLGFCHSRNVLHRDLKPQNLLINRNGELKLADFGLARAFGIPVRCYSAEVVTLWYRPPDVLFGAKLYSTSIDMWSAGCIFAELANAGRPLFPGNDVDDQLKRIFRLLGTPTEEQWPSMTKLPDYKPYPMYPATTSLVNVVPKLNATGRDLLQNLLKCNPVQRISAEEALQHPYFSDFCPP
Sequence of UniProt Q9HBH9 (whole entry, looked up): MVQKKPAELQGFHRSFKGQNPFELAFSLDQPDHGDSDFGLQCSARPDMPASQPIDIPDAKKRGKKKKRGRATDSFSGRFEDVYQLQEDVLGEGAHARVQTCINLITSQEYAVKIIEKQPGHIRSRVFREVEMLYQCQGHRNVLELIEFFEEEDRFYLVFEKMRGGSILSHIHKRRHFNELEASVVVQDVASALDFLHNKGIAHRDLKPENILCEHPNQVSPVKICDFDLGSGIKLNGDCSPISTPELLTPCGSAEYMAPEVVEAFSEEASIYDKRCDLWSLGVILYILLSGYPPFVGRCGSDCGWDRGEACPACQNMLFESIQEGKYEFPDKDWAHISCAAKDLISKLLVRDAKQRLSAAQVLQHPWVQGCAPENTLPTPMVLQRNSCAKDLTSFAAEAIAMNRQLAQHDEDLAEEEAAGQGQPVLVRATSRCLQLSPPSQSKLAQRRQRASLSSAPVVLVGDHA
Sequence of UniProt P11802 (whole entry, looked up): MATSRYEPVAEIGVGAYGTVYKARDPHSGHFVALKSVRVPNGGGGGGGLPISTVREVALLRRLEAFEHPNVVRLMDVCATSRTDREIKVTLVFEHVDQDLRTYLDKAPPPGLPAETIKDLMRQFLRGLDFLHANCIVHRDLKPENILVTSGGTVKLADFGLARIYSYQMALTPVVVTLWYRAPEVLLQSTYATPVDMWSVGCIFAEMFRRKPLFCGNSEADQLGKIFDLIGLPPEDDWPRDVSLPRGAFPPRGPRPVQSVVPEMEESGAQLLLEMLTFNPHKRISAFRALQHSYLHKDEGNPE
Sequence of UniProt P10721 (whole entry, unmodified, looked up): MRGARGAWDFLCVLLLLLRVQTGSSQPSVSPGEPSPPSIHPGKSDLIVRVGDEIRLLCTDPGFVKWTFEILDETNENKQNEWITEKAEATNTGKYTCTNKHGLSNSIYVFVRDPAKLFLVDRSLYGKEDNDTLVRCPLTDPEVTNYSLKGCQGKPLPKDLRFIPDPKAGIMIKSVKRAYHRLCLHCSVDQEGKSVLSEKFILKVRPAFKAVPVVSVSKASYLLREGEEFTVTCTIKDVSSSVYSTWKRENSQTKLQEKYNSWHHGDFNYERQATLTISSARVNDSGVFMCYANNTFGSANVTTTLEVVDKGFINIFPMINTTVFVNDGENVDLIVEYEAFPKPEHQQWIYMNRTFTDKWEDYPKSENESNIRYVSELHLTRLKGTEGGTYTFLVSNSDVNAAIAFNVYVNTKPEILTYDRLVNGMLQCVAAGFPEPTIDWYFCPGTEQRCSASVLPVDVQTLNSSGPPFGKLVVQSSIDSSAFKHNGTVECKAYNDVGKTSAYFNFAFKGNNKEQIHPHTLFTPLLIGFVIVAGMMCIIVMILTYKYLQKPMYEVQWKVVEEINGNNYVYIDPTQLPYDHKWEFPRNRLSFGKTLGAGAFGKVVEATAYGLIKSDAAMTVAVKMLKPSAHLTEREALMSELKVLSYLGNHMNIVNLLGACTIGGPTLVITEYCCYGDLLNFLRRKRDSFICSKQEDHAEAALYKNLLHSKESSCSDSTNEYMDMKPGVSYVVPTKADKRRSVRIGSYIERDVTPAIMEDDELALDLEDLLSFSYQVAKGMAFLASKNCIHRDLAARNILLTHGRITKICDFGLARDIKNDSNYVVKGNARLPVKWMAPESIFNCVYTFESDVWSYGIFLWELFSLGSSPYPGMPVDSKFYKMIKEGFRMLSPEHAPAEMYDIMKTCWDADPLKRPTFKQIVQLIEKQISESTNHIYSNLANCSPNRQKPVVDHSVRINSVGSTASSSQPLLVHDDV
Sequence of UniProt Q9UF33 (whole entry, looked up): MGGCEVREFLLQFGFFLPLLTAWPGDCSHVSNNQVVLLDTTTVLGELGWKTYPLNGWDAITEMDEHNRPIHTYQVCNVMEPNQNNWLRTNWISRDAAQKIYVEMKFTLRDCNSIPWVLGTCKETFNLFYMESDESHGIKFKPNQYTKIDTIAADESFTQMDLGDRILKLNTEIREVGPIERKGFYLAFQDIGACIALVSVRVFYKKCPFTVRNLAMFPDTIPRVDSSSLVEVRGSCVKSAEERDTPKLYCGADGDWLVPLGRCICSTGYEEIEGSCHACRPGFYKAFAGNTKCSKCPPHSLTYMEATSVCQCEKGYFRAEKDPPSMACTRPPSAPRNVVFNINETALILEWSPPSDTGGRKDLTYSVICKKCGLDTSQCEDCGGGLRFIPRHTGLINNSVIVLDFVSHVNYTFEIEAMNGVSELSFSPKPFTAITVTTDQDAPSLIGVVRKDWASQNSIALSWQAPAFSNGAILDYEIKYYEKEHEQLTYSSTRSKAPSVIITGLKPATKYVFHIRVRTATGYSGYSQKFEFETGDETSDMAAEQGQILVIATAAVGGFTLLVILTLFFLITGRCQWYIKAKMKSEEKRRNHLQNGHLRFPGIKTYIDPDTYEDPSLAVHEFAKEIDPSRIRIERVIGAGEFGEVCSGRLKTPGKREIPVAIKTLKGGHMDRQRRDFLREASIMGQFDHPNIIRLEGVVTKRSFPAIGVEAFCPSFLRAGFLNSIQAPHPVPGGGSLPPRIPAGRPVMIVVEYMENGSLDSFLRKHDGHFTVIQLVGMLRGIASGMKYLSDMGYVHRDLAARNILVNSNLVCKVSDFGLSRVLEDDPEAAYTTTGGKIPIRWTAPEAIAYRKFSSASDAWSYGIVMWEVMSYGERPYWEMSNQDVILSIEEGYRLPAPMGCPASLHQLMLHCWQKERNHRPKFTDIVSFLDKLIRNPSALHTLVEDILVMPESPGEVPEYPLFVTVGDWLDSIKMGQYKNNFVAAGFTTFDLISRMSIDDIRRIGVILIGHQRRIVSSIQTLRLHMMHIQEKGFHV
Sequence of UniProt Q96D53 (whole entry, looked up): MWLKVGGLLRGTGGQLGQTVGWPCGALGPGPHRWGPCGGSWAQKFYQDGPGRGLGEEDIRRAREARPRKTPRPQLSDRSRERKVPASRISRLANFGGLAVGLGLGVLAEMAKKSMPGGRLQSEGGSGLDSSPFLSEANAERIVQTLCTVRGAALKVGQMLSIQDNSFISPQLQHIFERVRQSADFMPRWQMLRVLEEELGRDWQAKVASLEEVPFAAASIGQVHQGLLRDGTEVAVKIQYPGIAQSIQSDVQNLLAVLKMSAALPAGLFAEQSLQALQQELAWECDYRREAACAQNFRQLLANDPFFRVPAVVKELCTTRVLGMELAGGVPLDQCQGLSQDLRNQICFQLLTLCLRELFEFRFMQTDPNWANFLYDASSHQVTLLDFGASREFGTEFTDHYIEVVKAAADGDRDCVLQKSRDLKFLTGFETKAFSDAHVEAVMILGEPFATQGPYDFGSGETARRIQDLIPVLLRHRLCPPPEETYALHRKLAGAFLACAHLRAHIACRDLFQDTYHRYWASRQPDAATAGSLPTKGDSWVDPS
Sequence of UniProt Q15831 (whole entry, looked up): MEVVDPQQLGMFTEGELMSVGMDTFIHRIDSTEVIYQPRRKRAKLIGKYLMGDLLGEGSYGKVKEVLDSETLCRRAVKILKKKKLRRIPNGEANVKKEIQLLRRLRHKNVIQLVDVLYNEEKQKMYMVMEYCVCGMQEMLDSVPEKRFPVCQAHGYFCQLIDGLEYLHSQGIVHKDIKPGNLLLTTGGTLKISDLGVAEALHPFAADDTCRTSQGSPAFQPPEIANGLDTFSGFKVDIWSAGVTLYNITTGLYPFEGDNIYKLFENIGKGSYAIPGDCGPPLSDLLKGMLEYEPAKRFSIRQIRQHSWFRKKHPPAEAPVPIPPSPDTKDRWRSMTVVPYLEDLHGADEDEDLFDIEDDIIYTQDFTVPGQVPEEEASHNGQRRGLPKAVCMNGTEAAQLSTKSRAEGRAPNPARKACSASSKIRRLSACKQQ

Study 1
Structure (SMILES): O=S(=O)(NCCNC/C=C/c1ccc(Br)cc1)c1cccc2cnccc12
Read-out: enzyme activity
Mode: inhibitor
Concentration: 0.5 µM
Reference: control
It gave 113% for remaining activity (Cyclin-dependent kinase 5, with p25 (CDK5, Homo sapiens, UniProt Q00535)).
For DAPK1 (Homo sapiens, UniProt P53355): remaining activity read 81.5%.
For Cyclin-dependent kinase 4, with cyclin D1 (CDK4, Homo sapiens, UniProt P11802): remaining activity read 93.9%.
For STK11 (Homo sapiens, UniProt Q15831): remaining activity read 102%.
For MAP3K3 (Homo sapiens, UniProt Q99759): remaining activity read 85.4%.
NEK2 (Homo sapiens, UniProt P51955) — remaining activity: 97.1%.
The remaining activity was 101% (GRK3 (Homo sapiens, UniProt P35626)).
IKBKB (Homo sapiens, UniProt O14920) — remaining activity: 89.5%.
For MAPK9 (Homo sapiens, UniProt P45984): remaining activity read 93.4%.
The remaining activity was 92.1% (TGFBR2 (Homo sapiens, UniProt P37173)).
IKBKE (Homo sapiens, UniProt Q14164) — remaining activity: 92.3%.
PRKCA (Homo sapiens, UniProt P17252) — remaining activity: 85.7%.

Study 2
SMILES: c1ccc(N2CCN(Cc3nc4ccccc4[nH]3)CC2)nc1
Method: competition with immobilised ligand
Concentration: 1 µM
It gave 91% for remaining binding (MKNK1 (Homo sapiens, UniProt Q9BUB5); binding).
EGFR (Homo sapiens, UniProt P00533); cell-free assay — remaining binding: 99%.
EPHA6 (Homo sapiens, UniProt Q9UF33); cell-free assay — remaining binding: 100%.
It gave 100% for remaining binding (KIT (Homo sapiens, UniProt P10721, V559D); binding).
MAP3K20 (Homo sapiens, UniProt Q9NYL2); binding — remaining binding: 92%.
For BTK (Homo sapiens, UniProt Q06187); cell-free assay: remaining binding read 96%.
For CDK17 (Homo sapiens, UniProt Q00537); binding: remaining binding read 100%.
The remaining binding was 100% (SGK1 (Homo sapiens, UniProt O00141); binding).
It gave 85% for remaining binding (Ribosomal protein S6 kinase alpha-5, N-terminal kinase domain (RPS6KA5, Homo sapiens, UniProt O75582); binding).
For Tyrosine-protein kinase ABL1, phosphorylated (ABL1, Homo sapiens, UniProt P00519, E255K); binding: remaining binding read 100%.
The remaining binding was 100% (MKNK2 (Homo sapiens, UniProt Q9HBH9); binding).
For PIK3CG (Homo sapiens, UniProt P48736); cell-free assay: remaining binding read 100%.
For MARK1 (Homo sapiens, UniProt Q9P0L2); binding: remaining binding read 100%.
COQ8B (Homo sapiens, UniProt Q96D53); cell-free assay — remaining binding: 100%.
The remaining binding was 100% (SGK3 (Homo sapiens, UniProt Q96BR1); binding).

Study 3
Target: PABPC1L2, full length, GST fusion (mouse, UniProt A0ABA7IW68)
Method: RNAcompete
Molecule type: RNA
Sample: in vitro
Concentration: 20 nM
Setting: 7-mer, probes averaged, single round
Reference: mean of 7-mers
Direction: higher = stronger binding
Target sequence (chain): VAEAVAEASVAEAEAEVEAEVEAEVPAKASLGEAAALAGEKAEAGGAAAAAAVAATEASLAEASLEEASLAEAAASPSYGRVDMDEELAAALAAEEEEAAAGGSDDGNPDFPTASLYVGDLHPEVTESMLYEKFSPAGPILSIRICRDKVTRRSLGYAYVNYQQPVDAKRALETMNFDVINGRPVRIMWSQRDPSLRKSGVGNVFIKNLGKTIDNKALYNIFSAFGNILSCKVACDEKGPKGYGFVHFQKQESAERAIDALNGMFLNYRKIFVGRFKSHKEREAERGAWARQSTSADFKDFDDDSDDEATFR
`AUCUACU` has a 7-mer Z-score of -0.215.
The 7-mer Z-score of `UAACUCA` is reported as -0.155.
`GAAAAAA` has a 7-mer Z-score of 21.2.
`GGUUCCA` has a 7-mer Z-score of -0.108.
For `UCCACGC`, the 7-mer Z-score was -0.219.
The 7-mer Z-score of `AAUUCCC` is reported as -0.0663.
With `UGACGUC` the 7-mer Z-score was -0.28.
For `UGGUCUG`, the 7-mer Z-score was -0.273.

Study 4
Target: Max dimerization protein 1, bHLH-zipper, MAX partner unstated (MXD1, Homo sapiens, UniProt Q05195, residues 56-136)
Method: protein-binding microarray
Molecule type: double-stranded DNA, one strand shown
Sample: in vitro
Concentration: not given
Setting: k-mer, scored over probes, only values ≥0.25
Direction: higher = stronger binding
Target sequence (chain): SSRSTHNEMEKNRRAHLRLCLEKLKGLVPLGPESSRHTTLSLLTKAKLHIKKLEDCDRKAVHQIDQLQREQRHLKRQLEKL
The E-score of `ACATGCGC` is reported as 0.433.
`GCATGCAA` has an E-score of 0.344.
`CAATGTGG` gave an E-score of 0.3.
`AACGTGCC` has an E-score of 0.411.
With `ACCCACGC` the E-score was 0.393.
With `CCCCATGC` the E-score was 0.389.
`CATGCAGG` has an E-score of 0.305.
For `ACCACACG`, the E-score was 0.382.

A few entries again (study 2):
For Tyrosine-protein kinase ABL1, phosphorylated (ABL1, Homo sapiens, UniProt P00519, E255K); binding: remaining binding read 100%.
The remaining binding was 100% (MKNK2 (Homo sapiens, UniProt Q9HBH9); binding).
For PIK3CG (Homo sapiens, UniProt P48736); cell-free assay: remaining binding read 100%.
For MARK1 (Homo sapiens, UniProt Q9P0L2); binding: remaining binding read 100%.
